Experimental data from different studies.
Parts stem from different laboratories: compare values within a part only.

Sample 1
Target: RNA binding protein fox-1 homolog 2, RRM domain, GST-SBP tag (RBFOX2, Homo sapiens, UniProt O43251-10, residues 100-194)
Technique: RNA Bind-n-Seq
Molecule type: RNA
Medium: in vitro
Concentration: 365 nM
Notes: natural RNA segment, single round, ends assumed
Baseline: no-protein control
Reading: higher = stronger binding
Shared flanks, not repeated: GGGAGUUCUACAGUCCGACGAUC … UGGAAUUCUCGGGUGCCAA
Strand | RBNS enrichment (R)
GAGGGAGAGUGAAUUGUCGUGGAAAACUAGGGUCGAUUUCACGUACCUCUCGGGACAACUUUUAAAAGCUAUUUUUACCAAGUAUUUUGUAAAUGCUAAUUUUUUAGGAC | 0.393
UCUCAUUAAUGGCUGAUGCAAACUUAGUGAAUAAUAAUGAAUAUAAACAAUGCUCACCUCACCAAAAUUAUAUUAUUUGCAGUCAUUUGUGAUAACACAAAUUUUAUCGC | 1.02
UCCACAGCAAAUGAGAUGUAUGCCCAAAGACGGUAGAAUUAAAGAAGAGUAAAAUGGCUGUUGAAGCACUUUCUGUCCUGGUAUUUUGUUUUUGCUUUUGCCACACAGUA | 2.58
UUCUUUUUUUCAACUCUCCAUCAAAUGUGCCUUAAAGUUAAGCAUUUUGACCCAAGUGUUUUAACUUAGUCCAGAAUAGUUUCCUUUGUCUUUUGUAACUUUACAGAGGA | 0.568
AUUCAACAUUUUCAUGACCUGGUUAUAGCCUUUGCUGGUGUUUUUAAAAUAUCUUGACUCAGUGACAAAACCCGAGUCCUUUUUUAAAAAAACAAAAACAAACAACAAAA | 0.486
AACCGUCUGUAAUCAGUACAGCCACCCAAAGGGCUAUAGUUCUCAAUUAAAAUGCAAAUGGAUAUCUACUCUCGUGUUGUGUGCCUCAUCUCCUCUGACAGGGCUAUGGU | 0.602
CUGGGAUGGCCGCCCUGCUCUGAGACUUGGCCACUCUUGUCCUGGCCAAGUGUUCUGCUUGCAUUUGCUUGGCUCUGGUACCAAAUAGUUGGGAUUCUUGAUGAAAUCCC | 1.61
AGCUGUGAUCCAGGAUGGCAUGCUCACGUGCGGAAUGCAAUUUUGCCACCGGUUUGUAAUGUGGGUUUUGUUUCUCUCUAGACUUGCCUCUCACUGCUUUUUGUCUGAAA | 4.82
AGUGAAAGUUGACAUUGUGUUUCAGAACUCUUGGUGUCCCUCUCAUUCCUAUCCUUCCUGGUACUGCAGUCAACCAAAGAUGGCAUGACUUACCUGCGCAGAUCUGGAAG | 1.04
UGCAUUCGUAGAACUUCUAAGGGUCCCAGGAUCACUUUUAAGGGAUUUUUUUUUUAUAGUUUAAAUAAAGUCAGCUGAAUCUACAUGUCUCUUGUUUUAUUUCUCUCUAA | 0.786
GGUAGGAGAAGGAGACGAAGAUGCUUUAGGAAGAUAAAAACCUUACAAAGAAUGUAUACUCAUCUUUUUUGGCCCAUUACAAUACUGCUUUCUCAGGUUCUUAACAGCCU | 0.388
UGACACAGAGCCUUCUGUGCUGUUUCCUGUCCUAGGUUUGAGAGACCAAAUAUGAACUUGUGAGUUGUGUCAAUGCAGAGAACCGGGGUUUUGUGUUAAUAGAGUAUUGU | 0.987

Sample 2
Target: Phosphate system positive regulatory protein PHO4, full length, GST-tagged (PHO4, Saccharomyces cerevisiae, UniProt P07270, residues 1-312)
Technique: competition protein-binding microarray
Molecule type: double-stranded DNA, one strand shown
Medium: in vitro
Concentration: 2 µM
Notes: whole 60-bp probe, lowest competitor level
Together with: Cbf1 competitor, 0.05 µM
Reading: higher = stronger binding
Shared flanks, not repeated: … GTCTTGATTCGCTTGACGCTGCTG
Construct (chain): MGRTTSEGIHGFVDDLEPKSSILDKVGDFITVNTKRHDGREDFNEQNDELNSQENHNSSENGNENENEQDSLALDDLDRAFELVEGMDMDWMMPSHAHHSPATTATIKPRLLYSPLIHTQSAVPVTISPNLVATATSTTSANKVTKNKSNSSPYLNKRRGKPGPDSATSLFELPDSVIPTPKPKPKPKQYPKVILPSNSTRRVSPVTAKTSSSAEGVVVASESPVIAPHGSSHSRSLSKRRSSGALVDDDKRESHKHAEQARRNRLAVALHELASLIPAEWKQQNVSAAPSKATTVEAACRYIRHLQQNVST
Strand | fluorescence intensity [a.u.]
GTAAATGCCGCCCATCACGTGGTGAAGAAAAGAAAC | 16200
TCAAACTGAGATCCGGTCATGACAATACTGTCAACA | 3310
CTGATGTCTGTTTTCAACATGATGTCCAATGGTGCC | 6030
CGTCCTAGTGATTTTCACGTGTGCTCCATGAGGAAG | 11100
CTAACGAAGGTTTGAGACGTGGGTGACAAGCCAAGT | 6070
AAAGCGGTAATTTTTCACGTGAGGTCAAATATCTAT | 10800
CATACCCAACCTTGTCACAGCACTTAAGATATTTGT | 4560
CTCTATCTTGTACGCAACGTGTGGAGCTTTATTCTA | 14900
TGTTTTTTCTTCTGTCAGGTGAAAGTATAGGACCAA | 2990
AGAACACAGTTTCGGCACGTGGAAGGTGTTTGGGAC | 18500
AAAGCGGTAATTTGTATCGTGGGTGCAGATATCTAT | 8290
GTTTGATAGCTGGTTTACGTGCATCTCAAACAGAGA | 5380
CCTATTTTTCTTTTTTACGTGCTAAGGACGAAAAGT | 5960
AGTGCCACCTTAAAGCACGCAGTTACTGTTTACGCT | 8620
GTCTTGTCTCATTGATCGGTGGGTGTCCCCACTTCA | 4650
ACTGCAGTAATTCTCCACATGGGCCCAGCCACTGAG | 9190
GGATGCCCGAAATCCAACGTGCAAACTATTCTCGGG | 10500
GAAACGGGTGGGAATGACGTGGTAATCAATGAACTA | 4520
CTTTCCCGATCTTGCGTAGTGGGTGTAGCACATTTG | 4620
CTTTCCCGATCTTTTCACGTGTGGTTAGCACATTTG | 12300

Sample 3
Target: Interferon regulatory factor 7, full length, phosphomimetic (IRF7, Homo sapiens, UniProt Q92985, residues 1-503, S471D/S472D/S475D/S476D/S477D/S483D/S484D/S487D)
Chain of UniProt Q92985 (whole entry, unmodified, looked up): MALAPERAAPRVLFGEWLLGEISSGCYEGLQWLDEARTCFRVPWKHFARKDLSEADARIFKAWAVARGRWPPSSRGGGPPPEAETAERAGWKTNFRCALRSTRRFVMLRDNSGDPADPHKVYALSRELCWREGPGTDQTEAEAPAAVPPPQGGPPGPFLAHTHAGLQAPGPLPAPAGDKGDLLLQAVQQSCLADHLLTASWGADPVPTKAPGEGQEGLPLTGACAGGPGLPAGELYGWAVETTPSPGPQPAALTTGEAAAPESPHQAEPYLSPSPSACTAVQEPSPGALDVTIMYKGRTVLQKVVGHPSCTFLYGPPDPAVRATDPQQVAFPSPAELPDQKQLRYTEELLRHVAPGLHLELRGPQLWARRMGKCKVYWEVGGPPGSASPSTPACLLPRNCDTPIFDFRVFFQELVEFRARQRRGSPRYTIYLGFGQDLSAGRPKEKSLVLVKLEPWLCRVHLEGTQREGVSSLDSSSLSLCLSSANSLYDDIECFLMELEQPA
Technique: protein-binding microarray
Molecule type: double-stranded DNA, one strand shown
Medium: in vitro
Concentration: 2200 nM top
Notes: 60-bp whole probe
Together with: salmon DNA 0.4 mg/ml
Baseline: random background probes
Reading: higher = stronger binding
Shared flanks, not repeated: GCCTAGCAC … GTCTTGATTCGCTTGACGCTGCTG
Strand | fitted relative affinity
TTAGGTTCCGGTTGCGGTTAGTGCTAG | 2.49 z-score
GGTTTTTACTTTCTGAATGCGTGCTAG | 5.23 z-score
ATAGGTTTCCTACTGCTTTAGTGCTAG | 1.14 z-score
GACGCTTTCCTACTGCTGACGTGCTAG | 2.71 z-score
TTAGGACTGGGACTGGGTTGGTGCTAG | -1.1 z-score
GACGGTCTCGGAATGGGGACGTGCTAG | -0.0576 z-score
ATAATTTTTCTAGTGGTTGCGTGCTAG | 1.21 z-score
TTAGCACTGGACACTGGGTTAGTGCTA | -0.655 z-score
CACTATTTAAGGCCTATGCACGTGCTA | 0.203 z-score
TTAGATCTCAGACTGGATTGGTGCTAG | -0.178 z-score
GACGGTCTCCTTACCCTGACGTGCTAG | 0.642 z-score
TCATATATCTGTGTTATACTGTGCTAG | 1.37 z-score
GACGGATTCGGTCTCGGGACGTGCTAG | 1.2 z-score
GACGGACTGGGGTTGCGGGACGTGCTA | -0.657 z-score
AGGATCCTGGGAGGGAGAGCGTGCTAG | -0.131 z-score
TTAGGTTGCGGGTATCGGTTAGTGCTA | 0.761 z-score
GACGGTATCGGGACTGAGGACGTGCTA | -0.587 z-score
TTAGGTTTCCTACTGCTTTCGTGCTAG | 2.22 z-score
TTAGATTTCCTTTCCCTTTAGTGCTAG | 4.25 z-score
CGGAATTTCCCTCTGCTCCTGTGCTAG | 1.55 z-score
GACGGCTTCGGGTATCGGGACGTGCTA | -0.0337 z-score
TTAGATATCGGGTATCGAGTAGTGCTA | 0.0181 z-score
GACAGACTGGGGACTGGGGACGTGCTA | -0.257 z-score
TTAGATATCAGTCTCGCTTAGTGCTAG | 0.263 z-score
TCACTTTTGAGAGATGGAACTGTGCTA | 1.29 z-score

Sample 4
Target: RING finger protein unkempt homolog, zinc fingers 1-6, GST-SBP tag (UNK, Homo sapiens, UniProt Q9C0B0, residues 30-357)
Technique: RNA Bind-n-Seq
Molecule type: RNA
Medium: in vitro
Concentration: not given
Notes: RNA with constant flanks, human and mouse sites, ends assumed
Baseline: input RNA pool
Reading: higher = stronger binding
Shared flanks, not repeated: GGGAGUUCUACAGUCCGACGAUC … CAACAGAGGAUUGAGCAUCA
Target sequence (chain): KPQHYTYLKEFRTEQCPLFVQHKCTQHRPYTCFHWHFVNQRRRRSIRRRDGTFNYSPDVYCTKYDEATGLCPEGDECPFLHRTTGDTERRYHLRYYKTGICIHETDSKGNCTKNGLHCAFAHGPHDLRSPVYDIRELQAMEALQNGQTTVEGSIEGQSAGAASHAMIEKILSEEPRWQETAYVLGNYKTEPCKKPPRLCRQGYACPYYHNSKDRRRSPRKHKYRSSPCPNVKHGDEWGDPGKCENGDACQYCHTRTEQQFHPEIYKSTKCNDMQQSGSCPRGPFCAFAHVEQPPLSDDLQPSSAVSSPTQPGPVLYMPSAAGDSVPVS
Strand | bound/input enrichment [ratio]
CAGUGGCGUUUGGAGGAGACUCGAAACUGGAUGGCUUCUACAGGGAGCCAGGCCUCUGAUAUAGACGAGAUUUUUGGAUUCUUCAACGAUGGCGAACCUCCCACCAAAAAGCCCAGGAAG | 0.191
UUUCCGAUCUUGUCCCCCUGCCCUUCCCUCGUAGUCUCUGCAUUUCUCCCCCAAGGUGGCAUUAGCAGGCUUGAGGCUCCCAGGGGAUAGGAACGCCUGGCCUGGCGUGCUUAGCACCGC | 0.247
UCCGAUGAACAAGAAGAUGAGGAUGCUGUAGUCAACAGGAUAUCGUUGUUUCUGAGCACCUUCACUCUAGCCGUGUCAGCUGGCGCGGUUUUGCUUUUACCCUUCUCAAUCAUCAGCAAU | 0.0849
UCUCUUUUUUCACAUUUCCUGUAAACAAUGCAUCUCUUUUUUUAAAAAAGAUUUUACUUUUAAGUACUGUUUUAACAGUGUGGCUAGACUAUAAAUGUACUUGCUGAAUUCAUCCAUUUC | 2.24
UUGCUCUCUGAAGUAGACUAGACUGUGCUGUCCAUGAGGAAUGGGUGUGCAUGUGCUUGUCCUAGUGCGUCCCGCUUCUGCAUCGCAGCUGCAGGCCUCCCUCUGGCGGCUGUGUCGCCA | 0.0795
CCUGAGAAUGUCUAUAGCGUUCACUUCGAAAAGGAGCAUAAAGCUGAGAAAGUCCCAGCCGUAGCUAACUACAUUAUGAAAAUACACAAUUUUACUAGCAAAUGCCUCUACUGUAAUCGC | 22.2
GCUCUACGCUGCUGGGAUACAGCUCGCAGCCUGGGGUCCCGGAUAUUUGGAAGAUAUGCGUUCACGGUUAGAGCAUUAAGUUCUUUGCCAGAUAAGAAAAAGGAAUUUUUGCAUAAUGGA | 0.293
CUUCAGCUGUCUACACCACAGAAAGCAAGUCAACACCAAGUUUUAUUUUUGUUAUCAGAUGUAGCACAUGCUAAGAAUCCCACCCAUUCCAAUAAAAAACUACCUACCUCUGCUUCAGUU | 0.177
AAUCAGAAUACCAGUGAUUUUGAGAAAACGGGAUUUUCUGAAGAAGUACUAGAUGAUGUAAUUAUAUUGAUUAAAUCGGAUAGCGUCCAUCUGUACUGUAAUCCUGUAAACUUUCGCUAU | 0.152
GAGCUGGGAUACAAGCAAGAAAGAUCUGACUGAAUAUUUGUCUCGAUUUGGGGAAGUGGUAGACUGCACAAUUAAAACAGACCCAGUCACGGGAAGAUCAAGAGGAUUUGGAUUUGUGCU | 0.339
AAGUCUUUGGGAAGCAGUGAUUUGAAAUUUUGAGGUGACAGGCUUUUAAGGUAUAUUUUGUAGCAUGGGUUGGCAAUCUACAGCAUGUGGGCCAAAUCCAGCCUGCUGCCUGUUUUUAUA | 0.455

For quick reference, copied from above (sample 2):
Strand | fluorescence intensity [a.u.]
CTGATGTCTGTTTTCAACATGATGTCCAATGGTGCC | 6030
CGTCCTAGTGATTTTCACGTGTGCTCCATGAGGAAG | 11100
CTAACGAAGGTTTGAGACGTGGGTGACAAGCCAAGT | 6070
AAAGCGGTAATTTTTCACGTGAGGTCAAATATCTAT | 10800
CATACCCAACCTTGTCACAGCACTTAAGATATTTGT | 4560
CTCTATCTTGTACGCAACGTGTGGAGCTTTATTCTA | 14900
TGTTTTTTCTTCTGTCAGGTGAAAGTATAGGACCAA | 2990
AGAACACAGTTTCGGCACGTGGAAGGTGTTTGGGAC | 18500
AAAGCGGTAATTTGTATCGTGGGTGCAGATATCTAT | 8290
GTTTGATAGCTGGTTTACGTGCATCTCAAACAGAGA | 5380
CCTATTTTTCTTTTTTACGTGCTAAGGACGAAAAGT | 5960
